# Measured values from different studies.
# Parts stem from different laboratories: compare values within a part only. “And” joins repeats or separate records; there may be more than shown.
# Sequence of UniProt P21918 (whole entry, looked up): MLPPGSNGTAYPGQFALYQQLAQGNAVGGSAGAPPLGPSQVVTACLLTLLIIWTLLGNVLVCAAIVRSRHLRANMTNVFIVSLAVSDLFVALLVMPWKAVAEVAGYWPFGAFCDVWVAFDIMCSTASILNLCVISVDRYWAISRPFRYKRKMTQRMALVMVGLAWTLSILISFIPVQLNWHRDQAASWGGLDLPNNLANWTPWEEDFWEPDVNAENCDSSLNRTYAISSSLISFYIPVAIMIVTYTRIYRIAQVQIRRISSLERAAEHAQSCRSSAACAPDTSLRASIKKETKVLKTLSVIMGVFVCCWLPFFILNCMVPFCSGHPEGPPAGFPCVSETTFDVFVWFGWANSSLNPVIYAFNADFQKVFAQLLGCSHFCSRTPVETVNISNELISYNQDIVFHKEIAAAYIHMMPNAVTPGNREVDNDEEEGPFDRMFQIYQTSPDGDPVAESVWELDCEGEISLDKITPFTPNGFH
# Sequence of UniProt P08908 (whole entry, looked up): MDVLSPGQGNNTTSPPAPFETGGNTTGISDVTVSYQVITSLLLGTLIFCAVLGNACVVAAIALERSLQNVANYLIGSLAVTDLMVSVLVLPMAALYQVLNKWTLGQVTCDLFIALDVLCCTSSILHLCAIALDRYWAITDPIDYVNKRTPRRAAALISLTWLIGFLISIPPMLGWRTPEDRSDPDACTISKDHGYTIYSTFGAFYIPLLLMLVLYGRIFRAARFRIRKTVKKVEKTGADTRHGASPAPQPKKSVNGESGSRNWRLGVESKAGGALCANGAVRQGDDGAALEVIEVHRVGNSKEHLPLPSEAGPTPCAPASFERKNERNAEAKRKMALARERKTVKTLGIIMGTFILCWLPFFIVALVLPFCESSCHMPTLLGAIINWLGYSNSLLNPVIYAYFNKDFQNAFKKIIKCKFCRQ
# Sequence of UniProt O75385 (whole entry, looked up): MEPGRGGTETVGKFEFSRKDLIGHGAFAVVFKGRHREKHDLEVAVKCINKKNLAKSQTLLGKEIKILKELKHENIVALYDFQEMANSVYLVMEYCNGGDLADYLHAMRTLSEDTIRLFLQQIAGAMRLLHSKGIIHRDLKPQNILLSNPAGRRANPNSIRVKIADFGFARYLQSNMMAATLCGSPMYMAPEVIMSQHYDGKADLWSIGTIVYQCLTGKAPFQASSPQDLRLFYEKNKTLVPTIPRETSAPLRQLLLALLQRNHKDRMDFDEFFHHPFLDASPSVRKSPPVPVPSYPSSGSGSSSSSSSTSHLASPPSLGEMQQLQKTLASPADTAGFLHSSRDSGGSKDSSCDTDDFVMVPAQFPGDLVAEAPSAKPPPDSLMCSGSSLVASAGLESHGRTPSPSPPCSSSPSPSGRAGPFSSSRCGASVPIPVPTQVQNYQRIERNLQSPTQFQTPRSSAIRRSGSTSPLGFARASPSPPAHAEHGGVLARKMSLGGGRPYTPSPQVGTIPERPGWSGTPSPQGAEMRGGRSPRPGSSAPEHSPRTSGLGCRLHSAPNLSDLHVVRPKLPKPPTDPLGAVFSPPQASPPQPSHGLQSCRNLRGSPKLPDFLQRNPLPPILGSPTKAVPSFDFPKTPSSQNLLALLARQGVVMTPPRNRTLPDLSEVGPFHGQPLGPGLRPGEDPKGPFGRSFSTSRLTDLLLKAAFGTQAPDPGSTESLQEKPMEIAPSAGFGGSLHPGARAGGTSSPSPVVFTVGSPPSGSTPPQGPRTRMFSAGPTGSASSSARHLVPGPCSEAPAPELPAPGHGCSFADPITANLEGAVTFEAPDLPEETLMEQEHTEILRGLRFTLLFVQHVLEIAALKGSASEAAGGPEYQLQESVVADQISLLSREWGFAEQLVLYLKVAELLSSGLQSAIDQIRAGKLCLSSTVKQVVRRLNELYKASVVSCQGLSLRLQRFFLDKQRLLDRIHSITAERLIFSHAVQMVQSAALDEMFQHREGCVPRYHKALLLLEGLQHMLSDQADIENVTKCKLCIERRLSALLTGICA
# Sequence of UniProt P78362 (whole entry, looked up): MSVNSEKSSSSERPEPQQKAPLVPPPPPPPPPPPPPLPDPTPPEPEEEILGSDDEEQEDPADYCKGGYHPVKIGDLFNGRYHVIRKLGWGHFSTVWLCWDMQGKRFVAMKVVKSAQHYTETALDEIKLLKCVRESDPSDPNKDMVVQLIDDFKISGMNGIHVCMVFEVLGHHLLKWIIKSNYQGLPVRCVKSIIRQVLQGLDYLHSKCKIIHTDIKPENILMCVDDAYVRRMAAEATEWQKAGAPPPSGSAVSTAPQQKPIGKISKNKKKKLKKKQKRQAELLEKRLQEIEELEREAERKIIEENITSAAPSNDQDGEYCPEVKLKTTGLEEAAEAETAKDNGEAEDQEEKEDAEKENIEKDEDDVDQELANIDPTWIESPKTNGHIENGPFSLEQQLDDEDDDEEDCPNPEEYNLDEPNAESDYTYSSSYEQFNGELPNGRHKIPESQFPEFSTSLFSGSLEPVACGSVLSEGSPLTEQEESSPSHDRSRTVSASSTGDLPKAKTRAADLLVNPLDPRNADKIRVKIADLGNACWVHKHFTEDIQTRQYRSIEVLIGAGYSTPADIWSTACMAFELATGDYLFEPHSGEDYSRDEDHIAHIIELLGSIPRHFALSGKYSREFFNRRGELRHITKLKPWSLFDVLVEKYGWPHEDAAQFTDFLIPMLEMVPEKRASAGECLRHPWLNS
# Sequence of UniProt Q9HBY8 (whole entry, looked up): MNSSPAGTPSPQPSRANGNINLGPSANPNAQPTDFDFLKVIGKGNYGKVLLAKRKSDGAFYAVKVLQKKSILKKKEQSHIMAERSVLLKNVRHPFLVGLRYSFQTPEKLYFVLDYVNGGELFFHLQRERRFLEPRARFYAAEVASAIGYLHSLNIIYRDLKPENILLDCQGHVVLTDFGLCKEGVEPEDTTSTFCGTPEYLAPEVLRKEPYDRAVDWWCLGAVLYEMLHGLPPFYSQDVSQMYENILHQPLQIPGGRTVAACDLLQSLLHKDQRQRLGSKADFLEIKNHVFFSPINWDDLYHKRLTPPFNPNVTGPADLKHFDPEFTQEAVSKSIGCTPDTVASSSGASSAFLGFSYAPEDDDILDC
# Sequence of UniProt O15111 (whole entry, looked up): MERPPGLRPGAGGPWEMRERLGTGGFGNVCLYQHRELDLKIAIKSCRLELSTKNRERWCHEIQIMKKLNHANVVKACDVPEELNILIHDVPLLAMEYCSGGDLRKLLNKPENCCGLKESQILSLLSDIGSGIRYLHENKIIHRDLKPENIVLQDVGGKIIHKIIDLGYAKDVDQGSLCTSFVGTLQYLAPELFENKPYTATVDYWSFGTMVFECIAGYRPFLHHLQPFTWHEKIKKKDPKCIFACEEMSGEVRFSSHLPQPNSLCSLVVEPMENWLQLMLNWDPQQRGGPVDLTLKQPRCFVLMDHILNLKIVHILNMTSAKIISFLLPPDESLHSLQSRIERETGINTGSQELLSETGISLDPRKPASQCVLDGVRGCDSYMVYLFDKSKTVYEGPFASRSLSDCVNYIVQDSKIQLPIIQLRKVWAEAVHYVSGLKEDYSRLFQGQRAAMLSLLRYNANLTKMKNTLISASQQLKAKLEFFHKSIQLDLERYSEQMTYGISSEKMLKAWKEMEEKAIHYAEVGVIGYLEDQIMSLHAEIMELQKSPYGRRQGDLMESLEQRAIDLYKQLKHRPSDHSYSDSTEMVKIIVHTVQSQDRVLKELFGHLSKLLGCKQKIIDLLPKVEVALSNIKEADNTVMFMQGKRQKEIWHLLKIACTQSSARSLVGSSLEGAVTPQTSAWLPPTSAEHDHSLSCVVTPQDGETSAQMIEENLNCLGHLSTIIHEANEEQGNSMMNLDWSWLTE
# Sequence of UniProt P35372 (whole entry, looked up): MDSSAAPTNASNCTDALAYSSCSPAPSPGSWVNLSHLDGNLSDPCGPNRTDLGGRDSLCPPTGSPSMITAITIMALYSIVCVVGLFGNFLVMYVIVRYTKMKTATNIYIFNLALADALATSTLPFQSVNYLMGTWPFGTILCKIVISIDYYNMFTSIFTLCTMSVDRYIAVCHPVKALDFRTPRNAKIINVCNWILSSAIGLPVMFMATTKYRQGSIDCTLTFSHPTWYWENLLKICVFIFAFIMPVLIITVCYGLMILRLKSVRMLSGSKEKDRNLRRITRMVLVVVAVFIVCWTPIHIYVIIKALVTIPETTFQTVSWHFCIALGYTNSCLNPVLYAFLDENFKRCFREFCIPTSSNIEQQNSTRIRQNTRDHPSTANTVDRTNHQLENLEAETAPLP
# Sequence of UniProt Q9HC98 (whole entry, looked up): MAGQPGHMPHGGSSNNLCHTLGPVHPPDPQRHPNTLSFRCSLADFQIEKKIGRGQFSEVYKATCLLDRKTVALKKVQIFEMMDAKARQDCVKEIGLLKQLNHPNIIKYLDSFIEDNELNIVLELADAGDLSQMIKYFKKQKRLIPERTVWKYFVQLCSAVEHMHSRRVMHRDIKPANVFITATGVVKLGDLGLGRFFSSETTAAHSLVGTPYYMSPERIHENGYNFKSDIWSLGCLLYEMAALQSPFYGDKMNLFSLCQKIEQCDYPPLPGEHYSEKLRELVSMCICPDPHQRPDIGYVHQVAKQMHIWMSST

# Study 1
# Compound: CC[C@@H](C)c1nc2cc(Nc3ccnc4ccc(S(=O)(=O)C(C)C)cc34)ccc2s1.Cl
# Technique: CCK-8
cell line,conditions,survival
L929 RIPK3-/- reexpressing RIPK3 K51A/R69H,3.125 µM,99.2% and 98.2% and 91.7% and 88.8% and 89.8%
L929 RIPK3-/- reexpressing RIPK3 K51A,6.25 µM,99.1% and 99.2% and 96.3% and 105%
L929 RIPK3-/- reexpressing RIPK3 K51A/R69H,25 µM,80.9% and 91.8% and 90.9% and 77.9% and 73.1%
L929 RIPK3-/- reexpressing RIPK3 K51A/R69H,50 µM,33% and 32.7% and 35.5% and 30.9% and 42.2%
L929 RIPK3-/- reexpressing RIPK3 K51A/R69H,"50 µM, with: zVAD",33.5% and 30.7% and 41% and 35.7%
L929 RIPK3-/- reexpressing RIPK3 K51A,"50 µM, with: zVAD",26.1% and 51.5% and 65% and 67.9% and 58.7%
L929 RIPK3-/- reexpressing RIPK3 K51A/R69H,12.5 µM,92.5% and 98.6% and 98.4% and 102%
L929 RIPK3-/- reexpressing RIPK3 K51A,3.125 µM,97.1% and 102% and 95% and 98.8% and 88.6%

# Study 2
# Target: Calcium/calmodulin-dependent protein kinase type II subunit alpha (CAMK2A, Homo sapiens, UniProt Q9UQM7)
# Sequence of UniProt Q9UQM7 (whole entry, looked up): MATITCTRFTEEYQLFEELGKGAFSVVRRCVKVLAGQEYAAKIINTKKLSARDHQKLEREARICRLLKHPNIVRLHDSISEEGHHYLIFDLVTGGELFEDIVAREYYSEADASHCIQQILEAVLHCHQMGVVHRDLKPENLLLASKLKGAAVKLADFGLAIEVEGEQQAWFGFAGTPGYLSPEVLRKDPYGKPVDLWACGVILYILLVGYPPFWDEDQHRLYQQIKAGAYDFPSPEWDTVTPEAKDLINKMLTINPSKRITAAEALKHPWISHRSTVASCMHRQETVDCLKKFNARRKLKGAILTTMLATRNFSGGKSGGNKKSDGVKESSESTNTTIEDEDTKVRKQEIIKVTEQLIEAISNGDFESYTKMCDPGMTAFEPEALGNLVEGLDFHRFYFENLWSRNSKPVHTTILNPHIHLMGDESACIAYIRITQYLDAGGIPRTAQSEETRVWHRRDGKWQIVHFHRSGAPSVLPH
# Read-out: enzyme activity
# Action: inhibitor
# Concentration: 10 µM
Compound,inhibition
CCN1C[C@]2(C)CC[C@H](OC)[C@]34[C@@H]5C[C@@H]6CC[C@](O)([C@@H]([C@@H](OC(=O)c7ccccc7)[C@H]23)[C@@H]14)[C@H]5C(=O)O6,14%
CC(C)(C)CC(C)(C)c1ccc(O)cc1,13%
NCC(O)c1ccccc1 (stereo not drawn),-7%
O=C/C=C/c1ccccc1,7%
Nc1nc(N)nc(NC2CC2)n1,-19%
COC1=CC(=O)O[C@@H](CCc2ccccc2)C1,32%
O=C(O)[C@H]1O[C@@H](Oc2cc3oc(-c4ccc(O)cc4)cc(=O)c3c(O)c2O)[C@H](O)[C@@H](O)[C@@H]1O,-1%

# Study 3
# Structure (SMILES): O=C(NNS(=O)(=O)c1ccccc1F)c1cc(F)cc(-c2ccccn2)c1
# Read-out: cell-free assay
# Concentration: 10 µM
target,inhibition
"HTR1A (Homo sapiens, UniProt P08908)",16%
"CHRM3 (Homo sapiens, UniProt P20309)",-17.6%
"OPRD1 (Homo sapiens, UniProt P41143)",20.6%
"OPRK1 (Homo sapiens, UniProt P41145)",5.23%
"OPRM1 (Homo sapiens, UniProt P35372)",3.45%
"CHRM1 (Homo sapiens, UniProt P11229)",0.14%
"DRD5 (Homo sapiens, UniProt P21918)",4.57%

# Study 4
# SMILES: CC(C)(C)c1cc(C=C(C#N)C#N)cc(Br)c1O
# Read-out: enzyme activity
# Action: inhibitor
# Concentration: 0.5 µM
target,how to read,remaining activity [%]
"GRK6 (Homo sapiens, UniProt P43250)",,94.6
"SYK (Homo sapiens, UniProt P43405)",baseline: control,97.6
"WNK3 (Homo sapiens, UniProt Q9BYP7)",,106
"SRPK2 (Homo sapiens, UniProt P78362)",,109
"CAMK2A (Homo sapiens, UniProt Q9UQM7)",baseline: control,104
"PRKCZ (Homo sapiens, UniProt Q05513)",,102
"NEK6 (Homo sapiens, UniProt Q9HC98)",,111
"PDGFRA (Homo sapiens, UniProt P16234)",baseline: control,95.4
"SGK2 (Homo sapiens, UniProt Q9HBY8)",,120
"ULK1 (Homo sapiens, UniProt O75385)",,88.2
"CHUK (Homo sapiens, UniProt O15111)",baseline: control,89.7
